Results collected from several papers.
Parts stem from different laboratories: compare values within a part only. Positions count from the first letter of the parent shown.

Set 1
Target: CCNB2, cyclin fold, Cln2 fusion (human)
Method: yeast growth competition, sequencing
Sample: yeast
Notes: weak parent motif
Relative to: not given
Reading: higher = stronger binding
Endpoint: normalised enrichment score
Parent: PKN2 docking peptide (human); VSAVRKLDFSDTM; partner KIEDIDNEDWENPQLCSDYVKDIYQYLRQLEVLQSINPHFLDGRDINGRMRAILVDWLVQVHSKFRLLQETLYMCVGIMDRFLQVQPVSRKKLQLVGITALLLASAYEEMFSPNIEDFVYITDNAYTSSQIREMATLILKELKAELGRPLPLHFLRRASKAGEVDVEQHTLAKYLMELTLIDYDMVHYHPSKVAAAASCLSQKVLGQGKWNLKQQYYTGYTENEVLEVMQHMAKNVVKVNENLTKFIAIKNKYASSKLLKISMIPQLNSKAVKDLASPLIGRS
V4A: 0.413
D8C: 0.495
K6H: 0.306
T12V: 0.72
T12P: 0.732
F9H: 0.253
L7Y: 0.196
D8S: 0.656

Set 2
Target: Histone acetyltransferase KAT6A, both winged helices, GST fusion (KAT6A, Homo sapiens, UniProt Q92794, residues 1-181)
Method: protein binding microarray
Form: double-stranded DNA, one strand shown
Sample: in vitro
Tested at: not given
Notes: 8-mer, flanks averaged, mean of 2 arrays, mostly near background
Relative to: not given
Reading: higher = stronger binding
Endpoint: E-score
Residues (chain): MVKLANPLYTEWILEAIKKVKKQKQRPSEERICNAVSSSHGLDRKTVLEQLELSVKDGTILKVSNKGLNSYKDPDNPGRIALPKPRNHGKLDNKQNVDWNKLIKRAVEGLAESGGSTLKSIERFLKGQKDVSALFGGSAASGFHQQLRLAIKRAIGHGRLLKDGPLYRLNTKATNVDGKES
GGTGCATA: -0.029
AATCCTCC: -0.107
ATAAACAG: -0.135
GCTCAACA: 0.0339
ACGGAAGG: 0.172
CAAAGAGG: -0.0992
GCCACGGA: 0.191
ATGCCGTA: 0.287

Set 3
Target: RING finger protein unkempt homolog, zinc fingers 1-6, SBP tag (UNK, Homo sapiens, UniProt Q9C0B0, residues 30-357)
Sequence of UniProt Q9C0B0 (30-357, looked up): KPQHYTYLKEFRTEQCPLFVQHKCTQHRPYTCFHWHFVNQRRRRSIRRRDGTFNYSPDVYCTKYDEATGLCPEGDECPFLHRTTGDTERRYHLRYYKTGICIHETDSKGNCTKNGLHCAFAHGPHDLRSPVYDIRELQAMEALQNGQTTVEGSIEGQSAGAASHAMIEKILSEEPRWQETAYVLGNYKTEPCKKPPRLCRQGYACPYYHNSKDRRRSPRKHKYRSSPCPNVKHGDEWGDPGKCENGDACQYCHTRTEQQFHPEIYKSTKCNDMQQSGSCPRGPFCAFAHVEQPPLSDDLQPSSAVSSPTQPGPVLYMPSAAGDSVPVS
Method: RNA Bind-n-Seq
Form: RNA
Sample: in vitro
Tested at: 100 nM
Notes: RNA with constant flanks, vertebrate orthologous sites, ends assumed
Relative to: input RNA pool
Reading: higher = stronger binding
Endpoint: bound/input enrichment
Constant ends, left off below: GGGAGUUCUACAGUCCGACGAUC … CAACAGAGGAUUGAGCAUCA
CUCCUCUUAAUCCCAUUUCAUCUGUUUCAUAGUGCUGAAAUUCCACCAUCAGCCUUAUUUUUAGUGAACUUAUUCUAAUUCUAGCGAAACUUCCAGCGUGGAUACUGUGAGCUAUAUGGA: 2.37 ratio
GUUUAGGUAGGGGUAACCAUUAAUUUAUUUAAAAGAAAGAAAUGAAAUGUUAAAAAUCAUUAGUACUAAGUUGAGUUGGAGAACUUCUCCAGCUACACUUCAUUCUCUCAUUCUGCAUUC: 2.29 ratio
CCCCGAUUUUAGAUGUGAUAUCUAGGCUUUCAUUCCAGUUUGUUUUUGUCUUUUCUUGUUUAGAUAACCAAUCUUUUAAAUUCUUGCAUUUUAGUAAGAAAGCAACCUUUUUAUGGAUGU: 1.11 ratio
GACGUAUUUAUACUGGCCAAACAUUUUUGACUUGUAUUUCUUUGUCCUUUUUUGGUAGUUCUCGUUGUUACCCGCACCAUUUUUAUGUCUCCUUCACUGAAGGGCUAGAGUUUUAACUUU: 0.434 ratio
AACUGUAUUUGUGUCAUACCAGCAUAUUAACCUCUGUGCACAGCUUCCAAUGUUACCGUCUAGUUAGAUUUUUAUUUAAAAUAUGAAAAACUGCUUUUCCCAAGACGUUUUUUAAAAAAA: 1.32 ratio
UGCUCCGGGACAGCAGUUAGAGUGAGUUCUCGGCUUCUCCCAUGAGGAAAAAAGCCCCAGCAGAUUCCUUACACAUCUGAUGAUACUGUUCUGCUUUUGUUUUCUGUUUUUACAUAGGCA: 0.396 ratio
AGCAACCCACGGAGGCAGGACUGCGUUUAUAAACGCGCCAAGUAGAUACGGAGCGAACAGUAGGGUGGGCCAACCGAGACCGUGAGGUACUACUCGCCUGCCGUUUAAUUUAUUUUGACG: 0.559 ratio

Single results of other studies
PhoQ, residues 284 288 289 292 302 303 TLSLKA — fold induction (PhoP, residues 12 14 15 18 19 GQAIL (Escherichia coli, UniProt P23836); Sort-seq, measured: YFP reporter; E. coli; PhoQ-PhoP variant library, added: 10 µM Mg2+; relative to: high Mg2+ state, higher = stronger signaling): 1.36

Some of these lines once more (set 2):
AATCCTCC: -0.107
ATAAACAG: -0.135
GCTCAACA: 0.0339
